# Measured values pooled from the literature.
# Compare with care: the assays were run in different laboratories. Numbers after ± are the reported error.
SMILES,assay,test system,conditions,endpoint,result
CCCCCCCCCCCCC(=O)O.O=C1CCCC2C3CCCN4CCCC(CN12)C34 (stereo not drawn),electrical conductivity,water,"308.15 K, critical micelle concentration",entropic term −TΔS of micellization,-7.89 kcal/mol
C[C@@H]1CCCN1CCc1cc2cc(C(=O)c3ccc([18F])cc3)ccc2o1,ultrafiltration,"monkey, plasma",,fraction unbound,2.08%
CC(C)[C@H](NC(=O)[C@H](Cc1c[nH]c2ccccc12)NC(=O)[C@H](Cc1ccccc1)NC(=O)[C@@H](NC(=O)[C@@H](NC(=O)[C@H](CCCCN)NC(=O)[C@@H](N)CCCCN)C(C)C)C(C)C)C(=O)N[C@@H](CCCCN)C(=O)N[C@@H](Cc1ccccc1)C(=O)N[C@@H](CCCCN)C(N)=O,"ELISA, refers to: IFN-γ","mouse, blood","intravenous, 500 µg/kg, 5 days",cytokine level,12.7 ± 1.53 pg/mL
C[C@@H]1CC[C@H]2[C@@H](C)CO[C@@H]3O[C@@]4(C)CC[C@@H]1[C@]32OO4,,"male Sprague-Dawley rat, plasma","oral, 100 mg/kg",MRT(0-t),5.36 h
CC(C)(CN)CNC(=O)O[C@H]1CCCC2(C1)OOC1(O2)C2CC3CC(C2)CC1C3 (stereo partly drawn),,human liver microsomes,,CLint,21.4 µL/min/mg
CC(C)[C@H](NC(=O)CNC(=O)[C@H](CCC(N)=O)NC(=O)[C@H](C)N)C(=O)O,,human,"intravenous infusion, 90 mg/kg/h, 2 h infusion",subjects given concomitant medication,0%
O=c1cc(-c2ccccc2)oc2c(Br)c(O)c(O)c(O)c12,mass spectrometry,"C57BL/6 mouse, plasma","oral, 250 mg/kg, 12 h, single dose",concentration,2080 ng/mL
CC(=O)N[C@@H](CCCCN)C(=O)N[C@H](C(=O)NCC(=O)N[C@@H](CC(=O)O)C(=O)N[C@@H](CCC(=O)O)C(=O)N[C@@H](CCCCN)C(=O)N[C@@H](CCCCN)C(=O)NCC(=O)NCC(=O)N[C@@H](Cc1ccc(O)cc1)C(=O)NCC(=O)N[C@@H](CCCNC(=N)N)C(=O)N[C@@H](CCCCN)C(=O)N[C@@H](CCCCN)C(=O)N[C@@H](CCCNC(=N)N)C(=O)N[C@@H](CCCNC(=N)N)C(=O)N[C@@H](CCC(N)=O)C(=O)N[C@@H](CCCNC(=N)N)C(=O)N[C@@H](CCCNC(=N)N)C(=O)N[C@@H](CCCNC(=N)N)C(N)=O)[C@@H](C)O,,PBS,"up to 24 h, pH 7.4, 80 °C",HPLC purity,100%
COc1cc(NC(=O)C(=O)c2c(C)n(Cc3ccc(Cl)cc3)c3ccc(C)cc23)ccn1,,"cynomolgus monkey, both sexes, plasma","oral, 1000 mg/kg once daily, day 5",number of plasma metabolites,13
CC(C)C[C@H](NC(=O)[C@H](Cc1ccc(O)cc1)NC(=O)CNC(=O)CNC(=O)CNC(=O)[C@H](Cc1c[nH]cn1)NC(=O)[C@H](Cc1c[nH]cn1)NC(=O)[C@@H](NC(=O)CNC(=O)[C@H](Cc1c[nH]cn1)NC(=O)[C@H](Cc1ccccc1)NC(=O)[C@H](CC(C)C)NC(=O)[C@H](CC(C)C)NC(=O)[C@H](CCCNC(=N)N)NC(=O)[C@H](Cc1ccccc1)NC(=O)[C@@H](N)Cc1ccccc1)C(C)C)C(=O)N[C@@H](CC(N)=O)C(=O)N[C@@H](C)C(=O)N[C@@H](C)C(N)=O,,zebrafish embryos,"1, 5, 25 µM, 4, 28, 52 hpf",toxicity,not toxic
CC(=O)OC1O[C@@H]2O[C@@]3(C)CC[C@H]4[C@H](C)CCC([C@H]1C)[C@@]24OO3 (stereo partly drawn),,Tg(fli1:EGFP) zebrafish embryos,"10 µg/mL, up to 48 hpf",dead embryos,3 count
COC(=O)C[C@H](NC(=O)[C@H](C)NC(=O)[C@@H](NC(=O)[C@H](CC(=O)OC)NC(=O)[C@@H](NC(=O)c1ccc2ccccc2n1)C(C)C)C(C)C)C(=O)COc1c(F)cccc1F,,rat pups,"1 mg/kg, 1 h",body weight,20.4 ± 1.67 g
COC(=O)C[C@](O)(CCCC(C)(C)OC(C)=O)C(=O)O[C@@H]1C(OC)=C[C@]23CCCN2CCc2cc4c(cc2[C@H]13)OCO4,,"CD1 mouse, spleen","oral, 1 mg/kg, 24 h, below quantification limit 1.00 ng/mL",tissue concentration,not detected
CC1=CC=c2ccc3c4c2[N]1[Re](=[C]=O)(=[C]=O)(=[C]=O)([C]#[N+]c1cc(C)cc(C)c1)[N]4C(C)=CC=3.O=S(=O)([O-])C(F)(F)F,,PBS,"pH 7.4, nitrogen-saturated",luminescence lifetime,5.3 µs
O=P1(NCCCl)NCCCO1 (stereo not drawn),,"rat, plasma","intravenous, 10 mg/kg, added: ketoconazole 20 mg/kg oral 50 min before",Tmax,2.25 ± 0.88 h
CC(C)(C)CC(C)(C)Nc1c(-c2ccc3c(c2)OCO3)nc2cnccn12,,Wistar rat,"oral, 14 days",LD50,< 2000 mg/kg
O=C(NCCCCCCCCn1ccc2ccccc21)Oc1ccccc1,,rat liver S9 fraction,"30 min, added: NADPH",parent remaining,49 ± 1%
CC(C)[C@]12O[C@H]1[C@@H]1O[C@]13[C@]1(O[C@H]1C[C@H]1c4c(C(=O)c5ccccc5)oc(OC(=O)c5ccccc5)c4CC[C@@]13C)[C@@H]2O,,"Sprague Dawley rat, female","intravenous, single injection",maximum tolerated dose,3 mg/kg
CC[C@H](C)[C@H](NC(=O)[C@H](C)NC(=O)[C@@H](NC(=O)[C@H](CC(=O)O)NC(=O)[C@H](CCCCN)NC(=O)[C@H](CO)NC(=O)[C@@H](NC(=O)[C@H](CC(N)=O)NC(=O)[C@H](C)NC(=O)[C@@H](NC(=O)[C@H](CCC(=O)O)NC(=O)[C@H](CCCCN)NC(=O)[C@@H](NC(=O)[C@@H](NC(=O)[C@H](Cc1c[nH]cn1)NC(=O)[C@H](CCCCN)NC(=O)[C@@H](NC(=O)[C@H](CCCCN)NC(=O)[C@H](CCCCN)NC(=O)[C@@H](NC(=O)[C@H](CC(C)C)NC(=O)[C@H](CCCCN)NC(=O)[C@H](CC(N)=O)NC(=O)[C@H](Cc1ccccc1)NC(=O)[C@H](CCCNC(=N)N)NC(=O)[C@H](CCCCN)NC(=O)[C@H](CCCNC(=N)N)NC(=O)[C@H](Cc1ccccc1)NC(=O)CN)C(C)C)C(C)C)[C@@H](C)O)[C@@H](C)CC)[C@@H](C)O)C(C)C)C(C)C)C(=O)N[C@H](C(=O)N[C@@H](C)C(=O)NCC(=O)N[C@@H](CO)C(=O)NCC(=O)N[C@H](C(=O)N[C@@H](C)C(=O)N[C@H](C(=O)NCC(=O)N[C@@H](C)C(=O)N[C@@H](C)C(=O)N[C@@H](CCSC)C(N)=O)C(C)C)C(C)C)C(C)C,,human erythrocytes,,minimal haemolytic concentration,> 1020 mg/L
O=C(NCCNCCO)c1cn(Cc2ccccc2)c2cc(OCc3ccc(C(F)(F)F)cc3)c(Cl)cc2c1=O,metabolic stability,"male rat, liver microsomes",1 µM,microsomal CLint,< 11.6 µL/min/mg
CC[C@H](C)C(=O)N1CCC(NC(=O)Nc2ccc(OC(F)(F)F)c(F)c2)CC1,,healthy volunteers,"oral, 16 mg single dose",subjects with palpitations TEAE,0%

# Repeated from above:
SMILES,assay,test system,conditions,endpoint,result
CC1=CC=c2ccc3c4c2[N]1[Re](=[C]=O)(=[C]=O)(=[C]=O)([C]#[N+]c1cc(C)cc(C)c1)[N]4C(C)=CC=3.O=S(=O)([O-])C(F)(F)F,,PBS,"pH 7.4, nitrogen-saturated",luminescence lifetime,5.3 µs
CC(C)(CN)CNC(=O)O[C@H]1CCCC2(C1)OOC1(O2)C2CC3CC(C2)CC1C3 (stereo partly drawn),,human liver microsomes,,CLint,21.4 µL/min/mg
O=C(NCCNCCO)c1cn(Cc2ccccc2)c2cc(OCc3ccc(C(F)(F)F)cc3)c(Cl)cc2c1=O,metabolic stability,"male rat, liver microsomes",1 µM,microsomal CLint,< 11.6 µL/min/mg
